Assay results of several laboratories.
Parts stem from different laboratories: compare values within a part only.

Block 1
Target: Fragile X messenger ribonucleoprotein 1, C-terminal low-complexity region (Fmr1, Mus musculus, UniProt P35922)
Technique: RNA Bind-n-Seq
Molecule type: RNA
Sample: in vitro
Tested at: 200 nM
Setting: whole 134-nt RNA, ends assumed
With: 150 mM LiCl
Reference: input library
Reading: higher = stronger binding
Each molecule: 7-deaza-guanosine replaces G
Shared flanks, not repeated: GGGAGUUCUACAGUCCGACGAUC … UGGAAUUCUCGGGUGUCAAGG
Oligonucleotide | log2 enrichment
CACAGACAACACGCACCCACACAGACACAGAGGGAAGGGGUUGGGAUGGGGACAGGGUGCACAGCAGGGCGGGGUAGGACGCCAGCCCCU | 0.00526
AAGUCCUGUGCUACACAUCGUAUGUACCGAAUCGGAAAAAAAGGAGGAAAAAAAGGAAAGUAUUAUGUUACGCCGUUCGGAUCUGCACUU | -0.898
CCUGUGCUACACAUCGUAUGUACCGAAUCGGCCCCCCCGGGCCCCCCCGGCCCCCCCGGGAAAGUAUUAUGUUACGCCGUUCGGAUCUGC | 0.912
GUCCUGUGCUACACAUCGUAUGUACCGAAUCGGAAAAAAGGGAAAAAAGGAAAAAAGGAAAGUAUUAUGUUACGCCGUUCGGAUCUGCAC | -0.53
ACCAUGCAGGUGGGCAUCUUUGGGAAGUGGGGCAAGGGGGGGAUAGGGAGGGGGGUAACACUUAGGGAACAGGUGGUCCCAGGUCGUUUC | 1.6
UCCUCAAGUCCUGUGCUACACAUCGUAUGUACCGAAUCGGUGGAGGUUUGGAAAGUAUUAUGUUACGCCGUUCGGAUCUGCACUUCCAGC | -1.5
UAACUUUAGAGGAGGAUCUGAUGGAUAUGGCAGUGGACGUGGAUUUGGGGAUGGCUAUAAUGGGUAUGGAGGAGGACCUGGAGAUGGCAA | 0.035
ACCAUGCAGGUGGGCAUCUUUGGGAAGUGGGGGAAGGGGGGGAUAGGGAGGGGGGUAACACUUUGGGAACAGGUGGUCCCAGGUCGUUUC | 1.74

Block 2
Target: Histone acetyltransferase KAT6A, winged helix 1, GST fusion (KAT6A, Homo sapiens, UniProt Q92794, residues 1-85)
Technique: protein binding microarray
Molecule type: double-stranded DNA, one strand shown
Sample: in vitro
Tested at: not given
Setting: 8-mer, flanks averaged, mean of 2 arrays, mostly near background
Reference: not given
Reading: higher = stronger binding
Residues (chain): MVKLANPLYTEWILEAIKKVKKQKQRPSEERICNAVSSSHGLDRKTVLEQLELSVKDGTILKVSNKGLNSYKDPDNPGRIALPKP
Oligonucleotide | E-score
CAGTTCCG | 0.224
ATTTACCG | 0.207
GAGCCTCA | 0.0915
CTAGGAAA | -0.201
AATAGTAA | -0.0175
CTCGCGTC | 0.176
CTCTGTCA | -0.114
ACTTACCC | 0.0534
CGTATGCC | 0.153

Block 3
Target: Interferon regulatory factor 5, full length, phosphomimetic (IRF5, Homo sapiens, UniProt Q13568-2, residues 1-514, K96S/S451D/S453D/S456D/S462D)
Technique: protein-binding microarray
Molecule type: double-stranded DNA, one strand shown
Sample: in vitro
Tested at: 250 nM
Setting: 60-bp whole probe
With: salmon DNA 0.4 mg/ml
Reference: random background probes
Reading: higher = stronger binding
Shared flanks, not repeated: GCCTAGCAC … GTCTTGATTCGCTTGACGCTGCTG
Oligonucleotide | log fluorescence [z-score]
AATGCCCTCGGTTTACAGGGGTGCTAG | 0.0954
GACGAACTGAGTCTCCAGACGTGCTAG | -0.311
TTAGGTTTCGGGTTTCTGTTAGTGCTA | 8.71
GACGATCGCAGTCTCGAGACGTGCTAG | -0.219
TTAGATATCGGGATTGGATTAGTGCTA | 1.64
TCACCTAACATGCTTCGAACTGTGCTA | 0.262
TCACTTCTGGATTTTTTACTGTGCTAG | 0.777
ACAAGTTTCTCCTTTCGGAAGTGCTAG | 5.48
GACGATTTCAGTATCGAGTCGTGCTAG | 4.61
TTAGGACTGGGGTATCGGTTTGTGCTA | 2.04

Other studies, line by line
Substance | target | assay | system | conditions | scale | quantity | result
PhoQ, residues 284 288 289 292 302 303 TLSLKA | PhoP, residues 12 14 15 18 19 YHFSH (Escherichia coli, UniProt P23836) | Sort-seq, refers to: YFP reporter | E. coli | PhoQ-PhoP variant library, with: 10 µM Mg2+ | reference: high Mg2+ state, higher = stronger signaling | fold induction | 1.28

Repeated from above (block 1):
Oligonucleotide | log2 enrichment
CACAGACAACACGCACCCACACAGACACAGAGGGAAGGGGUUGGGAUGGGGACAGGGUGCACAGCAGGGCGGGGUAGGACGCCAGCCCCU | 0.00526
ACCAUGCAGGUGGGCAUCUUUGGGAAGUGGGGGAAGGGGGGGAUAGGGAGGGGGGUAACACUUUGGGAACAGGUGGUCCCAGGUCGUUUC | 1.74
